Measurements collected from several papers.
Every numbered part comes from another study and shows a few of its results, in no order. Values joined by “and” are separate records of one study, mostly repeats; a detail may differ.
Sequence of UniProt P15056 (whole entry, looked up): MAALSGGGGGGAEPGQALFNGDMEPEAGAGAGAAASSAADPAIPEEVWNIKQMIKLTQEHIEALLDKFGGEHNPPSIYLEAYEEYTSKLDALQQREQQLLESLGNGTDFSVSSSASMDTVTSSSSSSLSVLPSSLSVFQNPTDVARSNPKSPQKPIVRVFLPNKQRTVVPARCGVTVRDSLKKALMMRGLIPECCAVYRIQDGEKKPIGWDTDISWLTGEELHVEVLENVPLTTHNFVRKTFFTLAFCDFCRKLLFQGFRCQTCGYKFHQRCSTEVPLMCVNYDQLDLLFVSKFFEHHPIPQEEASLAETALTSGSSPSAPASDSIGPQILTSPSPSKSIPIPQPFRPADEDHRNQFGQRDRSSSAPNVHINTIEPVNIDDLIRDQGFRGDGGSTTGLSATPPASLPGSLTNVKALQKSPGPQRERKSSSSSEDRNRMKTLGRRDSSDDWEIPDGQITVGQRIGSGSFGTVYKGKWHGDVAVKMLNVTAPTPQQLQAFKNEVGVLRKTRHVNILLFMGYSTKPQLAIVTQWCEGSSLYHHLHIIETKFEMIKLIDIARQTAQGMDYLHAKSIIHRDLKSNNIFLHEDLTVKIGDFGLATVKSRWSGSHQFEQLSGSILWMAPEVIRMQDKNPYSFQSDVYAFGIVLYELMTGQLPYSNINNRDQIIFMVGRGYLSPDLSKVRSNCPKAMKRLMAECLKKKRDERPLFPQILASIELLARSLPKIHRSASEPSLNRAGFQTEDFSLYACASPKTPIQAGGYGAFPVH
Sequence of UniProt Q9Y6E0 (whole entry, looked up): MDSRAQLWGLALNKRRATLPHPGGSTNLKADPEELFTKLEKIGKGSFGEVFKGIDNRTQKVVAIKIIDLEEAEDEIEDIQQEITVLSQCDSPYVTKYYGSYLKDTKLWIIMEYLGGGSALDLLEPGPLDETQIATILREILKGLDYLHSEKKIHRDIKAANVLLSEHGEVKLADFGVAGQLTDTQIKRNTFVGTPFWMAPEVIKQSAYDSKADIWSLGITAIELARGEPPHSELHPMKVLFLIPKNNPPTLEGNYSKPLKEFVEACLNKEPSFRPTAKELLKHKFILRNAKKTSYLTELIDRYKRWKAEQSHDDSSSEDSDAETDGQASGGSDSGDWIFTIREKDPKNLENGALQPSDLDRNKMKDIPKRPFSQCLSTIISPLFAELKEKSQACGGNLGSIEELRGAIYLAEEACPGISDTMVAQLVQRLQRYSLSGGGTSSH
Sequence of UniProt Q13882 (whole entry, looked up): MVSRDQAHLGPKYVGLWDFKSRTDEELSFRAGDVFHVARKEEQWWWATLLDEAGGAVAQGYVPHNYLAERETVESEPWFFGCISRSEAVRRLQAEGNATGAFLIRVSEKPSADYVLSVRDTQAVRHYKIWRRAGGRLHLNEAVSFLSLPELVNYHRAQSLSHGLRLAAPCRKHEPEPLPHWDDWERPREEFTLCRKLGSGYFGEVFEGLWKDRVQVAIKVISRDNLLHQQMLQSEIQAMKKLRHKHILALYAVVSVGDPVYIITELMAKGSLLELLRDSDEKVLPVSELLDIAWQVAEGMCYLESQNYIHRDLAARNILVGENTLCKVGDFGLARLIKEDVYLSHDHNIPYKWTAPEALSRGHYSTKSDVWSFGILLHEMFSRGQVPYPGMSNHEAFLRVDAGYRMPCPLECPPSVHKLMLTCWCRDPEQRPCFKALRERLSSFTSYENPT
Sequence of UniProt P23458 (whole entry, looked up): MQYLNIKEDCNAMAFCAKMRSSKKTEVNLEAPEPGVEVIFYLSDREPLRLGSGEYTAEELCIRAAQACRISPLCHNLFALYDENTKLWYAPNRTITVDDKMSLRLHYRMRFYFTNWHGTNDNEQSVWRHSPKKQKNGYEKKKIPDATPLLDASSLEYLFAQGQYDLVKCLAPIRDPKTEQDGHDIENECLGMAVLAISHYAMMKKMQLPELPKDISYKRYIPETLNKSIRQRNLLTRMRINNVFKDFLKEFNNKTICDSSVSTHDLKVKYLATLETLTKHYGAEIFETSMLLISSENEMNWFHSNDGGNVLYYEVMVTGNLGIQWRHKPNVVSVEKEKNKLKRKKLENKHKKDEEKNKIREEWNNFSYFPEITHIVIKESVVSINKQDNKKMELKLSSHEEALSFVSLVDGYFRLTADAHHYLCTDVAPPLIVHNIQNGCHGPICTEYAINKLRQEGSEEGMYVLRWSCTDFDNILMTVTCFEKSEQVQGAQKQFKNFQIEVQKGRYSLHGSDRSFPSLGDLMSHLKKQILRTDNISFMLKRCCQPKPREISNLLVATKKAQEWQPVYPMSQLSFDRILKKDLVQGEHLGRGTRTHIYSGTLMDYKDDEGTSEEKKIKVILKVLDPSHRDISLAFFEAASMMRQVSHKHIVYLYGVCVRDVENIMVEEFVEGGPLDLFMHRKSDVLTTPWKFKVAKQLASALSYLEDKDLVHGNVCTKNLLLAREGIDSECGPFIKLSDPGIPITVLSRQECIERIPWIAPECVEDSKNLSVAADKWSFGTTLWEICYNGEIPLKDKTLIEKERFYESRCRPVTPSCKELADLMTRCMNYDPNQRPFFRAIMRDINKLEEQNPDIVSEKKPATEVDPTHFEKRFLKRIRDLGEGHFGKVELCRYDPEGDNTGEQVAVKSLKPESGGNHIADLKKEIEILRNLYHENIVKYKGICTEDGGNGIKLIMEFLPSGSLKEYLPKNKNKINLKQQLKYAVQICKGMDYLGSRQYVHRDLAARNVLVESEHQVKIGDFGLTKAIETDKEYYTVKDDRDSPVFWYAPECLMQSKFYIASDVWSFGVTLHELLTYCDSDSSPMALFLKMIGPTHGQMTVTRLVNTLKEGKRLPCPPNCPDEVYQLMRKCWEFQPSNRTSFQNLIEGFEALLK
Sequence of UniProt P21127 (whole entry, looked up): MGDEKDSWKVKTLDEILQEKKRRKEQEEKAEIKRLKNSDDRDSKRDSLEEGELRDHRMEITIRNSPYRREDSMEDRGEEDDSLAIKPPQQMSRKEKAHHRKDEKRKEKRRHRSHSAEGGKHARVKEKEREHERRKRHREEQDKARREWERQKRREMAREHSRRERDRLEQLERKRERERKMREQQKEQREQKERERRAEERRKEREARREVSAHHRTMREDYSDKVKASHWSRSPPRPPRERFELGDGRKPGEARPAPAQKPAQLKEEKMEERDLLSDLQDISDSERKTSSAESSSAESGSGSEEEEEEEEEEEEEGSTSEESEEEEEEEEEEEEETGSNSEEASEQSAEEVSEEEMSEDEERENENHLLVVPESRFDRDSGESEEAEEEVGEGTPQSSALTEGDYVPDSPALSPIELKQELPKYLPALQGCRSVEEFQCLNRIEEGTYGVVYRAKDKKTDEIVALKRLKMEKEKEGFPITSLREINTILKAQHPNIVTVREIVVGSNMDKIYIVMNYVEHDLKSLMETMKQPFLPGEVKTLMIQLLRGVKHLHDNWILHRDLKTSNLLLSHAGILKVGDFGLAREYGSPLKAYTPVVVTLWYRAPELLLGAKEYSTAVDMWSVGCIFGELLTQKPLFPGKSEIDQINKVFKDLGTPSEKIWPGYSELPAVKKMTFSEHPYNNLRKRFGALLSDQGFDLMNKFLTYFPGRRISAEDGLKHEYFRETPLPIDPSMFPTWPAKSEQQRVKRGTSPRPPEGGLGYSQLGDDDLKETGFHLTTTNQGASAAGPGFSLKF
Sequence of UniProt P78368 (whole entry, looked up): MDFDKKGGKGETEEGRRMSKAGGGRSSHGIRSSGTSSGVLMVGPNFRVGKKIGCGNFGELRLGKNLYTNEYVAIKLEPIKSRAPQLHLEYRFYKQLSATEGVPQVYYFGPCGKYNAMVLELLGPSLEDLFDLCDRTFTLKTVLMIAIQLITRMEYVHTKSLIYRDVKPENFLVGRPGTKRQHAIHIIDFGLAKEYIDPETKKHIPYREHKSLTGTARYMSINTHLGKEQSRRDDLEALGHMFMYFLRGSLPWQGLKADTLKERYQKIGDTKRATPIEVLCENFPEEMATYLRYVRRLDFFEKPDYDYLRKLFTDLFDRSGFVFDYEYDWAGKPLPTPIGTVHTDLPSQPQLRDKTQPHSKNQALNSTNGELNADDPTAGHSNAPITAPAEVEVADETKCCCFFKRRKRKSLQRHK

Sample 1
Host: human
Matrix: microsomes or S9
Concentration: 2 µM
Time: 0.5 h
Structure (SMILES)	remaining compound [%]
COCC(C)(C)c1noc(-c2cccc3nn[nH]c23)n1	77.8
CC(C)(CCS(C)(=O)=O)CNc1cc(C#N)nc2ccccc12	80.7
COc1ccc(CCN[C@H]2CS(=O)(=O)C[C@@H]2S(=O)(=O)c2ccc(F)c(C)c2)cc1OC	1.42
COc1nc(Nc2ccc3[nH]ncc3c2)c(Cl)c(OC)n1	71.3

Sample 2
Target: TAR DNA-binding protein 43, full length, His tag (TARDBP, Homo sapiens, UniProt Q13148, residues 1-414)
Method: RNA Bind-n-Seq
Molecule type: RNA
Matrix: in vitro
Concentration: 20 nM
Setting: 6-mer, flanks averaged, single round
Added: 150 mM KCl
Reference: input library
Direction: higher = stronger binding
Oligonucleotide	6-mer enrichment (R)
UGAGGU	1.45
CGAGUA	0.795
UAAACU	0.586
CCGUGA	0.756
GCAGCG	1.86
UACAGA	0.653
CAAGGC	0.87
CUUCCA	0.558

Sample 3
Compound: C[C@@]1(Cc2ccc(C#N)cc2)C(=O)N(c2cc(Cl)cc(Cl)c2)c2ncc(C(=O)NC3(c4nc(C5CCC5)no4)CC3)n21
Read-out: cell-free assay
Method: competition with immobilised ligand
Concentration: 1 µM
target	remaining binding
Serine/threonine-protein kinase 24 (STK24, Homo sapiens, UniProt Q9Y6E0)	93%
Tyrosine-protein kinase JAK1, JH2 (JAK1, Homo sapiens, UniProt P23458)	100%
Serine/threonine-protein kinase B-raf (BRAF, Homo sapiens, UniProt P15056)	100%
Casein kinase I isoform gamma-2 (CSNK1G2, Homo sapiens, UniProt P78368)	91%
Cyclin-dependent kinase 11B (CDK11B, Homo sapiens, UniProt P21127)	100%
Protein-tyrosine kinase 6 (PTK6, Homo sapiens, UniProt Q13882)	100%
Receptor-type tyrosine-protein kinase FLT3 (FLT3, Homo sapiens, UniProt P36888, R834Q)	100%
Vascular endothelial growth factor receptor 3 (FLT4, Homo sapiens, UniProt P35916)	100%

Mixed results
Compound	test	system	setting	how to read	quantity	value
CCOC(=O)[C@@H]1CSCC(=O)N[C@H](CC)C(=O)N(CC(C)C)CC(=O)N[C@@H](CC(C)C)C(=O)N(C)[C@H](C)C(=O)N(C)[C@@H](C)C(=O)N[C@@H](CC(C)C)C(=O)N(C)[C@H](C)C(=O)N[C@@H](CC(C)C)C(=O)N1C	PRP-column chromatography				log k' (60)	0.658
CCCN1C(=O)[C@H](CC(C)C)NC(=O)[C@@H](N(C)C(=O)[C@H](CC2CCC2)NC(=O)[C@@H]2C[C@@H](F)CN2C(=O)[C@@](C)(O)C(F)(F)F)CCCCNC(=O)C2(CC2)NC(=O)[C@@H]1Cc1cc(Cl)ccc1Cl	immunohistochemistry	mice, NCI-H69 xenograft, tumour	intravenous, 100 mg/kg once daily, 18 h		cleaved caspase-3 positive cells	57% and 45.3%
CC(=O)N[C@@H](Cc1c[nH]c2ccccc12)C(=O)N[C@@H](CCC(=O)C=[N+]=[N-])C(=O)OC(C)C	UPLC-MS/MS	EL4 tumor, C57BL/6 CES1-/- mice, tumor	subcutaneous, 0.3 mg/kg DON equivalent daily, 5 days	higher = more metabolite	serotonin level	577000 a.u. and 760000 a.u. and 374000 a.u. and 1.18e+06 a.u. and 1.34e+06 a.u. and 508000 a.u.

Some of these lines once more (sample 3):
target	remaining binding
Serine/threonine-protein kinase B-raf (BRAF, Homo sapiens, UniProt P15056)	100%
Casein kinase I isoform gamma-2 (CSNK1G2, Homo sapiens, UniProt P78368)	91%
Cyclin-dependent kinase 11B (CDK11B, Homo sapiens, UniProt P21127)	100%
